Measured values pooled from the literature.
Parts stem from different laboratories: compare values within a part only. Positions count from the first letter of the parent shown.

Block 1
Target: ABI1, truncated, D143A, DHFR fusion (Arabidopsis thaliana)
Method: DHFR PCA, deep sequencing
Sample: yeast
Setting: methotrexate growth selection, single substitutions
With: (+)-ABA 4.8 µM
Baseline: wild-type fitted maximum
Reading: higher = stronger binding
Starting sequence: PYL1, truncated, DHFR fusion (Arabidopsis thaliana); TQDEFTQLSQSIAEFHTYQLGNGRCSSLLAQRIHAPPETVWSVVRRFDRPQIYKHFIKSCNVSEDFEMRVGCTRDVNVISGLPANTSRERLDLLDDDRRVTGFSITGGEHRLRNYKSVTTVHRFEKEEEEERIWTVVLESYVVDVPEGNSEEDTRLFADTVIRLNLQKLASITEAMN; partner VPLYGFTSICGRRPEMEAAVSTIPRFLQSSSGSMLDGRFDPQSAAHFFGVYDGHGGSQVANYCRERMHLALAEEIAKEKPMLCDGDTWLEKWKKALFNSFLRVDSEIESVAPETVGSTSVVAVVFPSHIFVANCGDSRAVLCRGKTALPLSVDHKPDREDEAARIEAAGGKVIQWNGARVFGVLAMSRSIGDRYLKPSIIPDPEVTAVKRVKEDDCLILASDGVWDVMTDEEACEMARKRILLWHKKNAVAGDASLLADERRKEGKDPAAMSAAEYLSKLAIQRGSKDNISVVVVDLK
Variant | relative binding score
L93R | 59.9%
V137H | 2.61%
R98G | 14.2%
S140V | -3.83%
S9I | 47.4%
V121C | 28.4%
L138G | 2.68%
V118W | -4.19%
E38P | -2.56%
L138E | -1.88%
I133W | 64%
V62S | 9.39%

Block 2
Target: CCNA1, cyclin fold, Cln2 fusion (human)
Method: yeast growth competition, sequencing
Sample: yeast
Setting: weak parent motif
Baseline: not given
Reading: higher = stronger binding
Starting sequence: SAMHD1 docking peptide (human); ASKSRVQLFKDDP
Variant | normalised enrichment score
L8A | -0.0975
S2A | 0.5
S4A | 0.852
D11Y | 0.496
F9I | 0.743
Q7G | 0.202
S2I | 0.651
V6A | 0.244
S4V | 1.11
L8I | 0.13
F9C | 0.129
L8Q | 0.272
S4N | 0.0195
L8E | 0.388
D12E | 0.457
D12T | 0.237
D12G | 0.0657
F9E | 0.252
V6H | -0.339
V6T | 0.51
V6R | 1.31
L8K | 0.482
K10F | -0.239
S4Q | 0.185

Block 3
Molecule: PhoQ, residues 284 288 289 292 302 303 AAQSYM
Method: Sort-seq
Item: YFP reporter
Sample: E. coli
Setting: PhoQ-PhoP variant library
With: 10 µM Mg2+
Baseline: high Mg2+ state
Reading: higher = stronger signaling
target | fold induction
PhoP, residues 12 14 15 18 19 HHYTI (Escherichia coli, UniProt P23836) | 1.09
PhoP, residues 12 14 15 18 19 AYFRS (Escherichia coli, UniProt P23836) | 7.95
PhoP, residues 12 14 15 18 19 SFCSL (Escherichia coli, UniProt P23836) | 19.8

Block 4
Target: Interferon regulatory factor 3, full length, phosphomimetic (IRF3, Homo sapiens, UniProt Q14653, residues 1-427, S386D/S396D/S398D/S402D/T404D/S405D)
Method: protein-binding microarray
Form: double-stranded DNA, one strand shown
Sample: in vitro
Tested at: 2540 nM top
Setting: 60-bp whole probe
With: salmon DNA 0.4 mg/ml
Baseline: random background probes
Reading: higher = stronger binding
Constant ends, left off below: GCCTAGCAC … GTCTTGATTCGCTTGACGCTGCTG
Residues (chain): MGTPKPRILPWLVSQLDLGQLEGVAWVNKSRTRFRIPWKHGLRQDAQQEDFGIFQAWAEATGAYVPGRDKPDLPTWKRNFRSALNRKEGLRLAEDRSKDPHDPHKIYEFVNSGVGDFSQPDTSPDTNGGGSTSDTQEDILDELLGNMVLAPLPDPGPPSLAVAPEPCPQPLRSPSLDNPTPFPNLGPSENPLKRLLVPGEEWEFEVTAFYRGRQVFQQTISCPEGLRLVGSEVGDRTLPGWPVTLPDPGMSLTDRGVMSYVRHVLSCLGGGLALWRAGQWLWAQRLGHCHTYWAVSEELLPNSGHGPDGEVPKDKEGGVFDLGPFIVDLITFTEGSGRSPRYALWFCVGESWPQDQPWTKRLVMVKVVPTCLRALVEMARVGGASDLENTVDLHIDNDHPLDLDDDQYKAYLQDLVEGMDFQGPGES
Oligonucleotide | fitted relative affinity
TTAGATCTCAGTATCGATCAGTGCTAG | 0.561 z-score
TTAGAACTGGGGTTTCGATCAGTGCTA | 0.248 z-score
GCTAGTGTGCCATATTTATCTGTGCTA | 0.0676 z-score
TTAAGACTGGGTCTCGGTTAGTGCTAG | -0.702 z-score
GACGGACTTGACTATCGGGACGTGCTA | -0.351 z-score
TCAACTTGTCTTTTCATACTGTGCTAG | 1.23 z-score
TTAGATATCGGCTATCGATTAGTGCTA | -0.333 z-score
GACGGACTGGGTCTCGTGACGTGCTAG | -0.811 z-score
GACTGTTCCGGTTTCGGGACGTGCTAG | 5.47 z-score
GACGATCTCAGTATCGAGATGTGCTAG | 1.15 z-score
ATGCCTTTCTCTTGGAGCTTGTGCTAG | 4.57 z-score
GACGGACTGGGTCTCGGTACGTGCTAG | -0.556 z-score
TCATTTCTTTTATTAGTACTGTGCTAG | 2.61 z-score
GTCGGTTCCGGTTTCGGGACGTGCTAG | 7.02 z-score
TTGATAATTTTTTTCTAAGTGTGCTAG | -0.143 z-score
TCAGATATCGGGTTTCGATTAGTGCTA | 2.32 z-score
GACGGACTGGACTATCGAGACGTGCTA | -0.558 z-score
TTAGATATCAGTTTCGGTTAGTGCTAG | 6.31 z-score

Block 5
Target: RNA binding protein fox-1 homolog 2, RRM domain, GST-SBP tag (RBFOX2, Homo sapiens, UniProt O43251-10, residues 100-194)
Method: RNA Bind-n-Seq
Form: RNA
Sample: in vitro
Tested at: 365 nM
Setting: natural RNA segment, single round, ends assumed
Baseline: no-protein control
Reading: higher = stronger binding
Constant ends, left off below: GGGAGUUCUACAGUCCGACGAUC … UGGAAUUCUCGGGUGCCAA
Residues (chain): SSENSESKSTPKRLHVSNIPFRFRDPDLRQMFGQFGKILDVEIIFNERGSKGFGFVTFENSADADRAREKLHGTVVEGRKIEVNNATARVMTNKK
Oligonucleotide | RBNS enrichment (R)
UAGUCCCCUGUUCCAAAGCCAUCUCAUAUGUUAGUUCUCUGUCCCAUGAAGAGGGCCGUGGUGAGUUCCCGAGAAUUGUCUCUCUUUCAGCAGAGAGGUGAGGGACUCAG | 0.544
ACAUAUUUUUGUACUACAUGGGGACUCUUCCUGCAUGUCAGCAAUAAAACUUCCUGAUCUGGAACCAUGUGGCCUGCGUCUCCUGCCUUCUUGCCUUCCCUGCCUACAUC | 1.05
UCUUAUAUUUUCAUGAGUUUUUAUUUUGUCUCUGAGAUUUUGUAUUCCACAUUCUAGGGUAUUCUGUAAUUUGGCUCCUUACCAAUAUUAUUAAAAUCUUAUUAAAAUCU | 1.02
GUAUCAAUUUGUUUGCAGUUAAUAUCAGCUUUGAUAGUCAUGUACCUUGACAUAGUGAAGGACACUAUAAUGUAUGAGUUGUUGUCAGUUUUUAUUUAUUUUUUGUUAGG | 1.12
AAAAGAGAGAAAGUCCUUGCUCCCGGGAACUCCCACUCUCUCAGGAACCACAGACCACCAAUGUUGAAGUCAGAAUGGAAAGUGUGCCAGCAAGGAUUUCUGAACACUAA | 0.836
AAAUCAUGAAACUUGAACUAUUUUUCUAUUCCCUUUUUUUCUUCCCCAUUUGCUGCCUUUUUUGUUUUUGUGGGGGAAGGGUUGGGAGUAAGUUUAAACUCUUCCGAAGA | 0.753
CUGUCGUCAGGGAAGCCCGUGAUCGCUCGUUUUCAGGGGUCUUACCGGUCAGCAACCUUGGCAUUGAUACAUAGGCACUCUACAGAAUUUAAGUUUUCAGAGGUAAGUCU | 1.82
CCAUUUGUAUACAUUUGCCCAAACAUAGCAACUAUUGUACAGUUUUUCAUUGUAUCAAAUACUUUUUUAAAGACUACAAAUAAAGUCUAUUAGGACUGUGACCCAAUAGA | 0.44
UGUCUAAUGAUUUAAAUGUAACCCAAGACUUUAAGUGUGGGUUACUUAAUGUGUUCCUGAAGAGGUUGUGCUUCCUGACAAAUGCUGUCAGGUCAUUAUUUGCUGUAUCA | 0.468
UAACACUUGAUUUGCCUUCUAUAACCUAUUUAUUUCAAGUGUUCAUAUUUGAAUUUCUUUGGGAAGAAAGUAAAUCUGAUGGCUCACUGAUUUUUGAAAAGCCUGAAUAA | 0.488
GAAUAAUGUUUACAUUGGUCCCUGAGGACAUGUGUGCUCAGACAUUCAAGAGCUAGGAGGCCAGAGAGAAGACCUUCAGAAAACGGUAAGUUAAAGAAGACAAGUGUCAU | 0.41
UUUGACCUCACCAGGCCUCAUGCUUCCCUUUAAUGUAAAGGGAAGGGGUUUGCCCACUUUCCUCUUUUUGGGGUUGGUGAGAGGGCAAACCCUGAUAUUUUUACUGUGAA | 0.231

Block 6
Target: RING finger protein unkempt homolog, zinc fingers 1-6, SBP tag (UNK, Homo sapiens, UniProt Q9C0B0, residues 30-357)
Chain of UniProt Q9C0B0 (30-357, looked up): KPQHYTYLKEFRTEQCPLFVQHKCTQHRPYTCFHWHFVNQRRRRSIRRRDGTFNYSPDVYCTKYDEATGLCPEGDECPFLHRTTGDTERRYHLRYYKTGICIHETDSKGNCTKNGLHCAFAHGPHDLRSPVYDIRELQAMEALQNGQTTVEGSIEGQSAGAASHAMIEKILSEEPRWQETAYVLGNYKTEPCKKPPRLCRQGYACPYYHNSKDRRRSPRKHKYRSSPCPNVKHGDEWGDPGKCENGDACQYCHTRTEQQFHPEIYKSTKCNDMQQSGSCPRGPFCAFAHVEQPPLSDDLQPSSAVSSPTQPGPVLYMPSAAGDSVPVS
Method: RNA Bind-n-Seq
Form: RNA
Sample: in vitro
Tested at: 100 nM
Setting: RNA with constant flanks, vertebrate orthologous sites, ends assumed
Baseline: input RNA pool
Reading: higher = stronger binding
Constant ends, left off below: GGGAGUUCUACAGUCCGACGAUC … CAACAGAGGAUUGAGCAUCA
Oligonucleotide | bound/input enrichment
CUACUAUAAACAACUCAGGGCAGUAUUCUCGCUAUCCUUACAGUAACCUAAAUCAGGGAUUAGUUAAUAAUACAGGGAUGAAUCAGAAUUUAGGCCUUACAAAUAACACUCCAAUGAAUC | 1.06 ratio
UUGUCUGCCUCAUUCUAAAAUUUACACAGUAGACAUUUGUCAUCCAUGCUGUCCCACAAAUAGUUUUUUUGUUUACGAUUUAUGACAGGUUUAUGUUACUUCUAUUUGAAUUUCUAUAUU | 2.91 ratio
GGAAAGUUACAGAUCAGACACUGAAAGUAGGAGCACAGGAUCCUGGCUGUCAUCCUCUUUGAGGAAUAGAUGUACACCUCUCUUUUCCAGAAGAAGAAGAGAAGGGAGAGAUGAAUCCGC | 0.416 ratio
AUUUUAAAUGUAUUUAGUUAUAUUUAAUUACCUCAUUCCUGAGUUCCUUUCUCAUUAAAGUAGCUUUCAUUUCUACUACUGCUAGAAGGUUUGUGCCACUAGACACUGUUCCUAAAUUAC | 1.14 ratio
GUUGUGACCCCUUUAACAUACAUAAAAAACUAGCCAAAAAGAACUUGCAUGUAAUUGAUUUAGAUGAUGCCACUUUUCUGAGUGCAAAAUUUGGCAGACAGCUUGUACCUGGUUGGAAGC | 1.02 ratio
GAACCGAAACUUAUAGCAAAAGAGCCAAGCAGUAGCAGUUUUUGUAAAUGUAAAAAUAAUUAGAUCCAGACUUUGUUUCCUUCAAUUUUAAAAAUAAAAAAUACCUCAGUGCUAUGUUUU | 1 ratio
GCAAAAGGCCAAAUUCCCUCCUCCCUUCUACUGCUUCUACCAACUGGAAGCACAGAAAACUAGAAUUUCAUUUCAUUUUUUUUUUUAAAAAAAAAAUUGAUUUCUCGUAACAUCCAAUAG | 0.779 ratio
AACCUCCUGAACGUCUAGCUUUCAAGUUGUGGCUGUUUUAAAUACUGGUUUUAUUUUCUUUAGAGUUUUACCCUGUUUCCUAUCUUCUUCUCCCCUGUUCCCAAGGUUUGACUCAUGGGU | 0.92 ratio
UUUUAUUGAUCAGGUCUGUAAAUGUGUACUAGAAUAAUCAGAGUUUAUUUAUAAAUACAAUAGCUUAUUUAAAGAGGUAUUUUCCUCCUUGCUAUCAUGGUAUGCAUAAUUCUGUGUGUU | 0.488 ratio
UGUACUAGCGUCAUACCAGCAUAUUACCUAUUUAAACUAUGUGCACAGCUUAAAAAAGUUUAGUUUUUCUUUUUGAGGAAAAGGAAAAACAUUUCACCCGGAUUCUAAAUGAAGCUACAU | 1.01 ratio
UUUUUUGUUAAACUUUAUUUUUUCCUUUCUUUUUCUUUCUGCCUUUUUUUUUUUUUUUGGUAGUUGUUGUUACCCACGCCAUUUUACGUCUCCUUCACUGAAGGGCUAGAGUUUUAACUU | 1.23 ratio

A few entries again (block 4):
Oligonucleotide | fitted relative affinity
TCAACTTGTCTTTTCATACTGTGCTAG | 1.23 z-score
TTAGATATCGGCTATCGATTAGTGCTA | -0.333 z-score
GACGGACTGGGTCTCGTGACGTGCTAG | -0.811 z-score
GACTGTTCCGGTTTCGGGACGTGCTAG | 5.47 z-score
GACGATCTCAGTATCGAGATGTGCTAG | 1.15 z-score
ATGCCTTTCTCTTGGAGCTTGTGCTAG | 4.57 z-score
GACGGACTGGGTCTCGGTACGTGCTAG | -0.556 z-score
TCATTTCTTTTATTAGTACTGTGCTAG | 2.61 z-score
GTCGGTTCCGGTTTCGGGACGTGCTAG | 7.02 z-score
TTGATAATTTTTTTCTAAGTGTGCTAG | -0.143 z-score
TCAGATATCGGGTTTCGATTAGTGCTA | 2.32 z-score
GACGGACTGGACTATCGAGACGTGCTA | -0.558 z-score
TTAGATATCAGTTTCGGTTAGTGCTAG | 6.31 z-score
